Published values of several laboratories.
Each numbered part is a random draw from the data of one study; scales do not carry over between parts.

Study 1
Target: Interferon regulatory factor 5, full length, phosphomimetic (IRF5, Homo sapiens, UniProt Q13568-2, residues 1-514, S451D/S453D/S456D/S462D)
Method: protein-binding microarray
Form: double-stranded DNA, one strand shown
Medium: in vitro
Concentration: 940 nM top
Setting: 60-bp whole probe
With: salmon DNA 0.4 mg/ml
Relative to: random background probes
Reading: higher = stronger binding
Measurement: fitted relative affinity
Shared flanks, not repeated: GCCTAGCAC … GTCTTGATTCGCTTGACGCTGCTG
GACGGACTGGACTTTGGGGACGTGCTA: -0.507 z-score
TACGGTATCGGTTTCGGGACGTGCTAG: 8.91 z-score
TTAGATTTCGGGTATTGATTAGTGCTA: 1.55 z-score
GACGATCTCGGACTGGAGACGTGCTAG: -0.131 z-score
TTAGGACTGGACTTTCGCTTAGTGCTA: 0.606 z-score
TTAGGTCTCGCACTGGGTTAGTGCTAG: 0.401 z-score
CACTCTCTGGGCTGTGGGTTTGTGCTA: 0.599 z-score
TCAGTTTTCTTTTCCATTTTGTGCTAG: 2.29 z-score
TTAGATCTCTGTATCGATTAGTGCTAG: 1.64 z-score
GACGGTTTCTTACTGCTGACGTGCTAG: 1.55 z-score
ATTCTCTTCTTGCATCTGGGTGTGCTA: 1.82 z-score
TCATGTTTGGTCCTGATACTGTGCTAG: 0.365 z-score
TCAGCATTTTTTTTATCACTGTGCTAG: 1.05 z-score
CGGCTACCGCGGCTCCTACAGTGCTAG: -0.398 z-score
GACGGACTGGGTATCGGCACGTGCTAG: 0.998 z-score
GACGGAATCGGGACTGGGGACGTGCTA: -0.335 z-score
TATATATCCATTATAGATGAGTGCTAG: 0.0116 z-score
GTCCTTTTCTTTACTGATGGGTGCTAG: 1.14 z-score
GACGGACTGCTTCTCCGGACGTGCTAG: -0.154 z-score
GACGGTTTCCTTCGCCTGACGTGCTAG: 1.31 z-score
GACGGTTTCCTTTTCGTGACGTGCTAG: 2.04 z-score

Study 2
Target: Sal-like protein 4, full length isoform B (SALL4, Homo sapiens, UniProt Q9UJQ4-2, residues 1-616)
Method: universal PBM
Form: double-stranded DNA, one strand shown
Medium: in vitro
Concentration: not given
Setting: 8-mer, flanks averaged, mean of replicates
Reading: higher = stronger binding
Measurement: E-score
Target sequence (chain): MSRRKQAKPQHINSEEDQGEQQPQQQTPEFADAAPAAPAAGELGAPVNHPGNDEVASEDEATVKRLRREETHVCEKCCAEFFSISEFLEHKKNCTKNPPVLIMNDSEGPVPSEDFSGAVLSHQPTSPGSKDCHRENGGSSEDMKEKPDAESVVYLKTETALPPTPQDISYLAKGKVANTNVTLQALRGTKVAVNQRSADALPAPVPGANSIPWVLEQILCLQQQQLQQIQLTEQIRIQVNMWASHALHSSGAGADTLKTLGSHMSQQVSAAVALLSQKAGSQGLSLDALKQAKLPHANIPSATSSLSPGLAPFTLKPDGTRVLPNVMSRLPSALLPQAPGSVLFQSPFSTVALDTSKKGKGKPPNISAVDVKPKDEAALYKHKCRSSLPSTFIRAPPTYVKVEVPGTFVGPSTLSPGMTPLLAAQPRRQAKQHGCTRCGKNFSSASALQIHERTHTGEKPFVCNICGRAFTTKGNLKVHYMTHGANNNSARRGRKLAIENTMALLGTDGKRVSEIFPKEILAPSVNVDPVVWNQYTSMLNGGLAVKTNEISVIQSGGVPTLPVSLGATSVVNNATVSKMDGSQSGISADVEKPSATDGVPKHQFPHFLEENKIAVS
ATAACCAT: 0.317
GCCTGATA: -0.0825
GGGTGAAA: 0.0059
CACCTAAC: -0.0255
TAGAAGGA: -0.0726
CCATTAAC: 0.277
CATGCATA: 0.282
CCTGCATC: -0.158
GCGGTGAA: -0.138
ACCGCGTC: -0.161
GCTATCCA: -0.0728
GTAGCTGA: -0.153
CCATGCCC: -0.342
CATCATCA: 0.169
CGCTCTTC: -0.085
CAATCCGG: -0.281
GCCGTAAA: -0.0845
ACGATAAT: 0.364
GTGCGTAA: -0.0759
GTACTCCA: -0.136
GGCCATCA: -0.176
ACTTCTAC: 0.127
CCACCTTC: -0.132
CACTGCTA: 0.012
CTTGGCTC: -0.0895

Study 3
Target: Prothrombin, mature alpha-thrombin (F2, Homo sapiens, UniProt P00734)
Method: aptamer microarray, sandwich
Form: DNA with 2'F-ANA
Medium: in vitro
Concentration: 200 nM
Setting: whole 15-mer aptamer, many near background
With: Cy3 exosite-II aptamer, 400 nM
Reading: higher = stronger binding
Measurement: mean fluorescence intensity
Strand: GGTTGGTGTGGTTGG
2'F-ANA at 1 2 3 5 7 8 9 12 13 14 15: 51.2 a.u.
2'F-ANA at 2 5 7 8 9 12 14 15: 70.7 a.u.
2'F-ANA at 1 6 7 9 12 14 15: 66 a.u.
2'F-ANA at 2 3 4 6 15: 541 a.u.
2'F-ANA at 3 4 5 6 7 8 9 10 11 12: 72.3 a.u.
2'F-ANA at 2 5 6 10 12 13 14 15: 49.4 a.u.
2'F-ANA at 1 3 4 7 8 11: 263 a.u.
2'F-ANA at 6 7 9 10 11 15: 133 a.u.
2'F-ANA at 4 5 9 11 12 13 15: 72.2 a.u.
2'F-ANA at 2 6 9 10 11 12 13 14 15: 77.8 a.u.
2'F-ANA at 1 2 3 5 7 8 10 11 13 15: 65.9 a.u.
2'F-ANA at 6 7 8 12: 894 a.u.
2'F-ANA at 2 3 4 5 6 7 8 9 10 12 13 14: 48.7 a.u.
2'F-ANA at 4 5 9 12 13 14 15: 47.9 a.u.
2'F-ANA at 2 4 5 7 8 9 15: 75.9 a.u.
2'F-ANA at 5 7 10 11 14: 43.6 a.u.
2'F-ANA at 1 3 8 11 13: 314 a.u.
2'F-ANA at 2 3 4 5 9 11 12 13: 103 a.u.
2'F-ANA at 1 4 6 7 8 9 11 12 13: 157 a.u.
2'F-ANA at 1 3 5 6 7 8 11 12 13 14: 46 a.u.
2'F-ANA at 5 7 9 10 11 14 15: 75.8 a.u.
2'F-ANA at 1 2 4 8 10 11 14: 47.9 a.u.
2'F-ANA at 2 3 4 5 6 9 10 12 15: 55.7 a.u.

Study 4
Target: Histone acetyltransferase KAT6A, winged helix 1, GST fusion (KAT6A, Homo sapiens, UniProt Q92794, residues 1-85)
Method: protein binding microarray
Form: double-stranded DNA, one strand shown
Medium: in vitro
Concentration: not given
Setting: 8-mer, flanks averaged, mean of 2 arrays, mostly near background
Relative to: not given
Reading: higher = stronger binding
Measurement: E-score
Target sequence (chain): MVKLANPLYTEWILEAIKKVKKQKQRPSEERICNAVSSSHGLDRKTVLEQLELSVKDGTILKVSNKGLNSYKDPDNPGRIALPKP
ACGAGTCA: -0.171
CTATTAGC: -0.0242
AGGTGGAT: -0.212
CAAGCCCA: -0.245
CGCACCCC: 0.229
CACCTCAC: 0.00743
ACAACCAC: -0.116
AAGCCCGG: 0.18
TTAAAGAA: -0.0921
ATAGCCCA: -0.27
CTCTGGTC: -0.0146
ACTCCCTC: -0.0442
AGGGCTTA: -0.0213
CCTAACGC: 0.202
CCCGAGCG: 0.297
GAGACGCC: 0.215
CTGACTGC: -0.0288
CTCTGGAC: -0.152
CGCAACCG: 0.329
CCCGGCTA: 0.215
AACGCTCC: 0.0191
CACTGCGG: 0.0806
CCTCTGAG: -0.145

Study 5
Target: RNA binding protein fox-1 homolog 2, RRM domain, GST-SBP tag (RBFOX2, Homo sapiens, UniProt O43251-10, residues 100-194)
Method: RNA Bind-n-Seq
Form: RNA
Medium: in vitro
Concentration: 365 nM
Setting: natural RNA segment, single round, ends assumed
Relative to: no-protein control
Reading: higher = stronger binding
Measurement: RBNS enrichment (R)
Shared flanks, not repeated: GGGAGUUCUACAGUCCGACGAUC … UGGAAUUCUCGGGUGCCAA
Residues (chain): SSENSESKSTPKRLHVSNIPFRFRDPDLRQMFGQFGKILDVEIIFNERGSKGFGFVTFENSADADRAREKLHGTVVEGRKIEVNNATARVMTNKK
GAGUAACUAUUUUCUUUCUGUUUUCUUUUACUCUGCUUACAUUUUAUAAGUUUAAGGUCAGCUGUCAAAAGGAUAACCUGUGGGGUUAGAACAUAUCACAUUGCAACACC: 0.28
UUGUAAAUGGCAGUGGAGACUAUGGUGUUCCUGAGGGGCAAUGGCAGGUCACUCUCCCGAUCUCCCUACUACCAGCCAGGUGCUGUUUCCUUCUGAGCUGUGGAGAUCAC: 0.526
AGAGAGAGGGGUGUUUGUGUGUAUAUAUAUAUGCCUUUGUGUAUACACUUAUCAAAGCUAUUUUCUUAUGAAAACGUCCCUCUCUCCAUACCAUCAGUUUCUCAGUUCCA: 0.376
AACUCAGCCAGGAAUGUGGCUCACACCUGUAAUCCCAGCACUUUGGGACACCUAGGUGGGAGCAUCGCUUGAAGCCAGGAGUUCAAGACCAGCUUGGGCAACGUAGUGAG: 2.01
GGAGGUGGCUGGACCAUCGUACCCACGUAACCUGCCCAGGACGAUGCCUCGCUGGGGCUGAGACUUUUUUAAUCCUUGUGUAAAGAAGCGAGAUCGAGGCAGAGAAACGU: 0.461
AGGGUGAAUAAAGUUUAGGGAGCUGGGACACCUGGUCCUGCUAGCUGGACCACUGGCUCAUCAUGCAAUGAAAAGGUGAGCAGACUUAACCCCUCCGUGCCUCAGCUUUU: 1.17
GAACGCCAACUGGAAAGGUCCCCUUCCCCAGGGGAGCCUGCGAAGGAGAGGUUCUGUAGAAUCCAAGCCCACAUUUCCAAAGUCACCCCCAACGCGUCCUCUCACACCGU: 0.552
ACUAUAUACCUGUAACUGGACCUGGAGAUGAAGAGAUACCCUCAUUGCUCUGUGUCUGACCCAAUAUUGUUGAAAAAUGAAAUAAAGCAUUAUGCAAAAGGUGUUACAUC: 0.777
ACGCUUGCAGUUGAAAGUGCCAGUGUCAAAGAAAGUGUUGAGAAGCUGCCUCUUCAGUGCAAAGAUGAAAAGGAACAUGCUGCUGACGGCCCCCAGCACCAAAGCUUAGC: 0.253
UCCAACUCCUGGCAAUCCUCCUGCCUCUGUUUCUCAGUUGCUCUGACAACAGGUGUGUACCACCACUCCUGACUUCCCUGCCCAAACUUCAUAUCCUACUUGUUAAUAGC: 0.492
CACACAGGGCUCUUUGAUGGACCCACGAACGCUCUUAGCUUUCUCAGGGGGUCAGCAGAGUUAUUGAAUCUUAAUUUUUUUUAAUGUACAAGUUUUGUAUAAAUAAUAAA: 0.545
UUGUUCGUGGGCCACCAACCCUGGAAUACGGCUGAUGGAUGGCUUUGUUGGCAACAAAACAGGAUAUUUCUCUCCUGAAUGUUGGUUUUGCAGACCCUACACAGCGGCCC: 0.285
